{"data": "Assay results pooled from the literature", "organism": "Escherichia coli", "note": "Each line is one published result; not all experiments were run side by side."}
{"SMILES": "Cc1c2oc3c(C)ccc(C(=O)N[C@@H]4C(=O)N[C@H](C(C)C)C(=O)N5[C@H](C(=O)N(C)CC(=O)N(C)[C@@H](C(C)C)C(=O)O[C@@H]4C)[C@@H](O)C[C@@H]5C)c3nc-2c(C(=O)N[C@@H]2C(=O)N[C@H](C(C)C)C(=O)N3CC(=O)C[C@H]3C(=O)N(C)CC(=O)N(C)[C@@H](C)C(=O)O[C@@H]2CCl)c(N)c1=O", "assay": "broth microdilution", "test system": "ATCC 12435", "conditions": "16 to 48 h", "MIC": "> 9.2 mg/L"}
{"SMILES": "CCn1c(-c2ccc(OC)cc2)c(-c2ccc(OC)cc2)n(Cc2c(C)cc(C)cc2C)c1=[Se+][Au-][P+](c1ccccc1)(c1ccccc1)c1ccccc1.[Cl-]", "assay": "broth microdilution", "test system": "carbapenem-resistant BAA-2140", "conditions": "24 h", "MIC": "> 40 µM"}
{"SMILES": "CC[C@H](C)[C@H](NC(=O)[C@@H](Cc1ccccc1)NC)C(=O)OC[C@H](N)C(=O)N[C@H](CCCNC(=N)N)C(=O)N[C@@H](C(=O)N[C@H](C(=O)OC[C@H](N)C(=O)N[C@H]1C(=O)N[C@@H](C)C(=O)N[C@@H](CC(C)C)C(=O)N[C@@H]([C@@H](C)CC)C(=O)O[C@H]1C)[C@@H](C)CC)[C@@H](C)CC", "assay": "broth microdilution", "test system": "ATCC 10798, Mueller-Hinton broth", "conditions": "16 h, 37 °C", "MIC": "> 8 mg/L"}
{"SMILES": "CC1C(=NOCc2cc(-c3ccc(Cl)cc3)no2)C(C)C(c2ccc(Cl)cc2)OC1c1ccc(Cl)cc1 (centres unmarked)", "assay": "microbial growth, broth dilution", "test system": "MTCC443", "conditions": "24 h", "MIC": "25 mg/L"}
{"SMILES": "CCCCCCCCCCCCCCCCCCSCC1OC(OC2C(N)CC(N)C(OC3OC(CN)C(O)CC3N)C2O)C(O)C(N)C1O (centres unmarked)", "test system": "BL21(DE3) Eis-expressing", "MIC": "> 150 mg/L"}
{"SMILES": "COc1cc2c(=O)c(C(=O)NCCNCCO)cn(Cc3ccccc3)c2cc1OCc1cccc(Br)c1", "test system": "ATCC 25922", "scale": "≥80% growth inhibition", "MIC": "< 0.25 mg/L"}
{"SMILES": "CC[C@H](C)[C@@H]1NC(=O)[C@@H](NC(=O)[C@H](CCCCN)NC(=O)[C@H](CC(C)C)NC(=O)[C@H](CC(C)C)NC(=O)CNC(C)=O)CN(C)C(=O)c2ccc(=O)n(c2)CC[C@@H](C(=O)N[C@@H](CC(C)C)C(N)=O)NC(=O)[C@H]([C@@H](C)O)NC(=O)[C@H](CCCCN)NC1=O", "test system": "ATCC 25922, Mueller-Hinton broth", "conditions": "20 h, 37 °C", "MIC": "31 mg/L"}
{"SMILES": "CCCCCCSCC1OC(OC2C(N)CC(N)C(OC3OC(CN)C(O)CC3N)C2O)C(O)C(N)C1O (centres unmarked)", "test system": "TolC, strain R", "MIC": "18.8 mg/L"}
{"SMILES": "C/C(=N/NC(=N)N)c1nnn(-c2ccc(C#CC(C)(C)C)cc2)c1C", "assay": "broth microdilution", "test system": "JW55031 tolC mutant", "MIC": "32 mg/L"}
{"SMILES": "CC(C)Oc1ccc(B(O)O)c(F)n1", "assay": "bacterial growth", "test system": "TEM-3 ESBL clinical isolate", "conditions": "cefotaxime alone", "MIC": "4 mg/L"}
{"SMILES": "CC[C@H](C)[C@H](NC(=O)[C@H](C)NC(=O)[C@@H](NC(=O)[C@H](CC(=O)O)NC(=O)[C@H](CCCCN)NC(=O)[C@H](CO)NC(=O)[C@@H](NC(=O)[C@H](CC(N)=O)NC(=O)[C@H](C)NC(=O)[C@@H](NC(=O)[C@H](CCC(=O)O)NC(=O)[C@H](CCCCN)NC(=O)[C@@H](NC(=O)[C@@H](NC(=O)[C@H](Cc1c[nH]cn1)NC(=O)[C@H](CCCCN)NC(=O)[C@@H](NC(=O)[C@H](CCCCN)NC(=O)[C@H](CCCCN)NC(=O)[C@@H](NC(=O)[C@H](CC(C)C)NC(=O)[C@H](CCCCN)NC(=O)[C@H](CC(N)=O)NC(=O)[C@H](Cc1ccccc1)NC(=O)[C@H](CCCNC(=N)N)NC(=O)[C@H](CCCCN)NC(=O)[C@H](CCCNC(=N)N)NC(=O)[C@H](Cc1ccccc1)NC(=O)CN)C(C)C)C(C)C)[C@@H](C)O)[C@@H](C)CC)[C@@H](C)O)C(C)C)C(C)C)C(=O)N[C@H](C(=O)N[C@@H](C)C(=O)NCC(=O)N[C@@H](CO)C(=O)NCC(=O)N[C@H](C(=O)N[C@@H](C)C(=O)N[C@H](C(=O)NCC(=O)N[C@@H](C)C(=O)N[C@@H](C)C(=O)N[C@@H](CCSC)C(N)=O)C(C)C)C(C)C)C(C)C", "test system": "isolate RKI 131/03, CAMHB", "MIC": "4 mg/L"}
{"SMILES": "CC[C@H](C)[C@H](NC(=O)[C@H](CCCCN)NC(=O)[C@H](CC(N)=O)NC(=O)[C@H](CC(C)C)NC(=O)[C@H](Cc1ccccc1)NC(=O)[C@H](CCCCN)NC(=O)[C@H](CCCCNC(=N)N)NC(=O)[C@H](CC(C)C)NC(=O)[C@H](CC(C)C)NC(=O)[C@H](CCCCN)NC(=O)[C@H](CCCCNC(=N)N)NC(=O)[C@H](CC(C)C)NC(=O)CNC(C)=O)C(=O)N[C@@H](CCCCN)C(=O)N[C@@H](CCCCNC(=N)N)C(N)=O", "assay": "broth microdilution", "test system": "ATCC 25922", "MIC": "3.12 µM"}
{"SMILES": "CCCCCCCCCCCCCCCCCC(=O)N[C@@H](CCCCN)C(=O)N[C@@H](CCCCN)C(=O)N(CCCCN)CC(=O)N[C@@H](CCCCN)C(=O)N[C@@H](CCCCN)C(N)=O", "assay": "broth microdilution", "test system": "K12, water pH 7", "conditions": "18 h, 37 °C", "MIC": "8 mg/L"}
{"SMILES": "Cc1cccc(-c2nc(Nc3ccncn3)c3sccc3n2)n1", "assay": "broth microdilution", "test system": "3", "MIC": "> 64 µM"}
{"SMILES": "CC(C)C[C@H](NC(=O)[C@H](CC(C)C)NC(=O)[C@H](CCCNC(=N)N)NC(=O)[C@H](CCCNC(=N)N)NC(=O)[C@H](CC(C)C)NC(=O)[C@H](CC(C)C)NC(=O)[C@H](CCCNC(=N)N)NC(=O)CCCCCNC(=O)/C=C/c1ccc(O)c(O)c1)C(=O)N[C@@H](CCCNC(=N)N)C(N)=O", "assay": "broth microdilution", "test system": "ATCC 25922", "conditions": "24 h, 37 °C", "MIC": "37 µM"}
{"SMILES": "CC[C@H](C)[C@H](NC(=O)[C@@H](CCCNC(=N)N)NC(=O)[C@H](CCCNC(=N)N)NC(=O)[C@@H]1CCCN1C(=O)[C@@H]1CCCN1C(=O)[C@H](CCCNC(=N)N)NC(=O)[C@@H]1CCCN1C(=O)[C@H](CCCNC(=N)N)NC(=O)[C@@H]1CCCN1C(=O)[C@H](CC(C)C)NC(=O)[C@H](Cc1ccc(O)cc1)NC(=O)[C@@H]1CCCN1C(=O)[C@@H]1CCCN1C(=O)[C@H](CCCCN)NC(=O)[C@H](Cc1c[nH]c2ccccc12)NC(=O)[C@@H](N)C(C)C)C(=O)N[C@@H](Cc1ccc(O)cc1)C(=O)N[C@@H](CC(N)=O)C(=O)N[C@H](CCCNC(=N)N)C(N)=O", "assay": "broth microdilution", "test system": "BW25113", "conditions": "18 h", "MIC": "8 mg/L"}
{"SMILES": "Cc1cc(N)c2cc(NC(=O)c3ccc4c(-c5cccc(O)c5)cccc4c3)ccc2n1", "test system": "BW25113 wild type", "MIC": "> 200 µM"}
{"SMILES": "CC(C)C[C@@H]1NC(=O)[C@H](C)NC(=O)[C@H](NC(=O)[C@@H](N)COC(=O)[C@@H](C)NC(=O)[C@@H](CC(C)C)NC(=O)[C@@H](N)Cc2ccccc2)[C@H](C(N)=O)OC(=O)[C@H](CC(C)C)NC1=O", "test system": "ATCC 10798", "conditions": "TFA salt", "MIC": "> 32 mg/L"}
{"SMILES": "CCCCCCCCCCCCCC[S+]([O-])CC1OC(OC2C(N)CC(N)C(OC3OC(CN)C(O)CC3N)C2O)C(O)C(N)C1O (mixture of isomers)", "test system": "BL21(DE3)", "MIC": "37.5 mg/L"}
{"SMILES": "CCCCCCCCCCCCC(=O)O.O=C1CCCC2C3CCCN4CCCC(CN12)C34 (centres unmarked)", "assay": "bacterial growth, broth dilution", "test system": "ATCC 25922", "MIC": "inactive"}
{"SMILES": "CC[C@H](C)[C@H](NC(=O)[C@H](CC(C)C)NC(=O)[C@H](CCC(=O)O)NC(=O)[C@H](CO)NC(=O)[C@H](CCCNC(=N)N)NC(=O)[C@@H](N)CO)C(=O)N[C@H](C(=O)N[C@@H](CCCNC(=N)N)C(=O)N[C@@H](CCC(N)=O)C(=O)N[C@@H](CCCNC(=N)N)C(=O)N[C@@H](CC(C)C)C(=O)N[C@@H](Cc1ccccc1)C(N)=O)C(C)C", "assay": "broth microdilution", "test system": "Mueller Hinton broth", "MIC": "> 400 mg/L"}
{"SMILES": "CCCCCCCC/C=C\\CCCCc1cc(=O)c2ccccc2n1C", "assay": "broth microdilution", "test system": "Luria-Bertani broth", "MIC": "> 1000 mg/L"}
{"SMILES": "CC[C@H](C)[C@H](NC(=O)[C@H](CCCCN)NC(=O)[C@H](CCCNC(=N)N)NC(=O)[C@@H](NC(=O)[C@H](CC(C)C)NC(=O)[C@H](CCCCN)NC(=O)[C@H](CC(C)C)NC(=O)[C@@H](NC(=O)[C@H](CCCCN)NC(=O)CNC(=O)[C@H](Cc1ccccc1)NC(=O)[C@@H](N)Cc1ccccc1)C(C)C)[C@@H](C)CC)C(=O)N[C@@H](Cc1ccccc1)C(N)=O", "assay": "broth microdilution", "test system": "K12", "MIC": "> 100 µM"}
{"SMILES": "Cc1cc(N)c2cc(NC(=O)c3ccc4cc(C(=O)N5CCN(C)CC5)ccc4c3)ccc2n1", "test system": "hyperporinated wild type", "MIC": "> 200 µM"}
{"SMILES": "CC[C@H](C)[C@H](NC(=O)[C@H](CO)NC(=O)[C@H](CO)NC(=O)[C@H](Cc1ccccc1)NC(=O)CN)C(=O)N[C@@H](Cc1ccccc1)C(=O)N[C@@H](CCCNC(=N)N)C(=O)NCC(=O)N[C@H](C(=O)N[C@@H](C)C(=O)N[C@@H](CCCCN)C(=O)N[C@@H](Cc1ccccc1)C(=O)N[C@@H](C)C(=O)N[C@@H](CO)C(=O)N[C@@H](CCCCN)C(=O)NCC(=O)N[C@@H](CC(C)C)C(=O)NCC(=O)N[C@@H](CCCCN)C(=O)N[C@@H](CC(=O)O)C(=O)N[C@@H](CC(C)C)C(=O)N[C@@H](C)C(=O)N[C@@H](CCCNC(=N)N)C(N)=O)C(C)C", "test system": "ATCC 8739", "conditions": "together with: 2.5 mM CaCl2", "MIC": "> 128 µM"}
{"SMILES": "CCCCCCCCCCCCCCCCCC(=O)N[C@@H](CCCCN)C(=O)N[C@@H](CCCCN)C(=O)N[C@@H](CCCCN)C(=O)N[C@@H](CCCCN)C(=O)N[C@@H](CCCCN)C(N)=O", "assay": "broth microdilution", "test system": "K12", "conditions": "16-24 h, 37 °C, prepared at pH 7", "MIC": "4 mg/L"}
{"note": "Some of these lines once more:"}
{"SMILES": "CC[C@H](C)[C@H](NC(=O)[C@@H](CCCNC(=N)N)NC(=O)[C@H](CCCNC(=N)N)NC(=O)[C@@H]1CCCN1C(=O)[C@@H]1CCCN1C(=O)[C@H](CCCNC(=N)N)NC(=O)[C@@H]1CCCN1C(=O)[C@H](CCCNC(=N)N)NC(=O)[C@@H]1CCCN1C(=O)[C@H](CC(C)C)NC(=O)[C@H](Cc1ccc(O)cc1)NC(=O)[C@@H]1CCCN1C(=O)[C@@H]1CCCN1C(=O)[C@H](CCCCN)NC(=O)[C@H](Cc1c[nH]c2ccccc12)NC(=O)[C@@H](N)C(C)C)C(=O)N[C@@H](Cc1ccc(O)cc1)C(=O)N[C@@H](CC(N)=O)C(=O)N[C@H](CCCNC(=N)N)C(N)=O", "assay": "broth microdilution", "test system": "BW25113", "conditions": "18 h", "MIC": "8 mg/L"}
{"SMILES": "Cc1cc(N)c2cc(NC(=O)c3ccc4c(-c5cccc(O)c5)cccc4c3)ccc2n1", "test system": "BW25113 wild type", "MIC": "> 200 µM"}
{"SMILES": "CC(C)C[C@@H]1NC(=O)[C@H](C)NC(=O)[C@H](NC(=O)[C@@H](N)COC(=O)[C@@H](C)NC(=O)[C@@H](CC(C)C)NC(=O)[C@@H](N)Cc2ccccc2)[C@H](C(N)=O)OC(=O)[C@H](CC(C)C)NC1=O", "test system": "ATCC 10798", "conditions": "TFA salt", "MIC": "> 32 mg/L"}
